# Measurements of several laboratories.
# Each numbered part is a random draw from the data of one study; scales do not carry over between parts. Positions count from the first letter of the parent shown.

# Series 1
# Target: TAR DNA-binding protein 43, full length, His tag (TARDBP, Homo sapiens, UniProt Q13148, residues 1-414)
# Technique: RNA Bind-n-Seq
# Molecule type: RNA
# Medium: in vitro
# Tested at: 20 nM
# Notes: 6-mer, flanks averaged, single round
# With: 150 mM LiCl
# Baseline: input library
# Direction: higher = stronger binding
Strand,6-mer enrichment (R)
CAGCAC,0.884
AUUUCG,0.922
CGGAGA,0.975
AGACUA,0.818
UAGAGU,1.03
GCGGUC,0.955
CUUGUA,1.01
UGUUGC,1.2

# Series 2
# Target: FOSL2, bZIP domain (human)
# Technique: DHFR protein complementation
# Medium: yeast
# Notes: single substitutions, most at no-binding floor
# Baseline: wild-type JUN-FOS pair
# Direction: higher = stronger binding
# Starting sequence: JUN, bZIP domain (human); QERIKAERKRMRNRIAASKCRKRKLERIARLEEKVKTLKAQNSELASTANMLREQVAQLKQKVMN; partner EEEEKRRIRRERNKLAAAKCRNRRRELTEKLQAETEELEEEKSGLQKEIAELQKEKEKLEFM
Variant,binding fitness
E32V,-0.0122 natural log
E33A,0.0378 natural log
S43T,0.109 natural log
L31A,-0.049 natural log
I28P,-0.103 natural log
K39E,-0.388 natural log
E32W,-0.168 natural log
A29E,0.0517 natural log

# Series 3
# Target: Histone acetyltransferase KAT6A, winged helix 1, GST fusion (KAT6A, Homo sapiens, UniProt Q92794, residues 1-85)
# Technique: protein binding microarray
# Molecule type: double-stranded DNA, one strand shown
# Medium: in vitro
# Tested at: not given
# Notes: 8-mer, flanks averaged, mean of 2 arrays, mostly near background
# Baseline: not given
# Direction: higher = stronger binding
# Residues (chain): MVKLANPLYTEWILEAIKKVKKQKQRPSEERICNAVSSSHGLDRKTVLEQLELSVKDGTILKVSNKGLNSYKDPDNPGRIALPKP
Strand,E-score
TATGCGAA,0.067
AATTTTGC,-0.124
AAAAGCTC,-0.0756
TAAGCGTA,0.0505
CTACGCGC,0.414
CGCAATGC,0.289
CAACGTCA,-0.0989
GACGACTC,-0.146

# Other studies, line by line
# Starting sequence: PafA, mature enzyme, eGFP fusion (Elizabethkingia meningoseptica, UniProt Q9KJX5); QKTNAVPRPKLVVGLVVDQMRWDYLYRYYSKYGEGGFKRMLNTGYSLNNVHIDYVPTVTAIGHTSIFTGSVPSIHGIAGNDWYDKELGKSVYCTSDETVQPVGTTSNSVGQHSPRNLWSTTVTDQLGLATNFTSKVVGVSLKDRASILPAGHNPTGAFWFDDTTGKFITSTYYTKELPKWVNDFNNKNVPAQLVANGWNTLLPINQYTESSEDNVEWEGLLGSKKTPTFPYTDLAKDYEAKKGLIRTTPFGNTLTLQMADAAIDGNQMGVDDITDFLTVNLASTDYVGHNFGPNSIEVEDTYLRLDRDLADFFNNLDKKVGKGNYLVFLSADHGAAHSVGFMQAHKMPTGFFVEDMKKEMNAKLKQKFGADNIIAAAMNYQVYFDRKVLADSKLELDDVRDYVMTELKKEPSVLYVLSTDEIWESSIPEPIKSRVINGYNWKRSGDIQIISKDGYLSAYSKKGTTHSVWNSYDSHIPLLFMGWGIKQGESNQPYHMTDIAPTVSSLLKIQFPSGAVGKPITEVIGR
Variant,target,assay,test system,setting,how to read,measurement,value
G33A,"inorganic phosphate, free oxyanion",microfluidic competitive inhibition,"in vitro, cell-free expressed","not given, derived from inhibition constants, unchanged parent 615000 nM",lower = stronger binding,phosphate dissociation constant,630 µM

# Excerpt of the above (series 1):
Strand,6-mer enrichment (R)
AUUUCG,0.922
CAGCAC,0.884
